Measured values collected from several papers.
Every numbered part comes from another study and shows a few of its results, in no order. Positions count from the first letter of the parent shown.

Sample 1
Target: CCNE1, cyclin fold, Cln2 fusion (human)
Technique: yeast growth competition, sequencing
Sample: yeast
Setting: strong parent motif
Reference: not given
Reading: higher = stronger binding
Quantity: normalised enrichment score
Starting sequence: RBL1 docking peptide (human); GSAKRRLFGEDPP; partner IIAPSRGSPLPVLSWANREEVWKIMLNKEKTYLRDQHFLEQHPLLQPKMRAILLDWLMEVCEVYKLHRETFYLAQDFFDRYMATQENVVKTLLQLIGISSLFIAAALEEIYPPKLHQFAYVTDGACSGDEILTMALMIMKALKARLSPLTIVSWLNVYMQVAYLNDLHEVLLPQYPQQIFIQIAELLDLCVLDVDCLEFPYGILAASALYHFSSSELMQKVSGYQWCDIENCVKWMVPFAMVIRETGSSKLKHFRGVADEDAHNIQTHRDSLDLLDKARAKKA
Change = GSAKRRLFGEDPI [P13I]; value = 6.77
Change = GSWKRRLFGEDPP [A3W]; value = 3.69
Change = GSHKRRLFGEDPP [A3H]; value = 4.78
Change = GSAKRRLFGGDPP [E10G]; value = 4.4
Change = GSAKRRLFGEDKP [P12K]; value = 5.98
Change = GSAKIRLFGEDPP [R5I]; value = 0.323

Sample 2
Target: ABI1, truncated, D143A, DHFR fusion (Arabidopsis thaliana)
Technique: DHFR PCA, deep sequencing
Sample: yeast
Setting: methotrexate growth selection, single substitutions
With: (+)-ABA 200 µM
Reference: wild-type fitted maximum
Reading: higher = stronger binding
Quantity: relative binding score
Starting sequence: PYL1, truncated, DHFR fusion (Arabidopsis thaliana); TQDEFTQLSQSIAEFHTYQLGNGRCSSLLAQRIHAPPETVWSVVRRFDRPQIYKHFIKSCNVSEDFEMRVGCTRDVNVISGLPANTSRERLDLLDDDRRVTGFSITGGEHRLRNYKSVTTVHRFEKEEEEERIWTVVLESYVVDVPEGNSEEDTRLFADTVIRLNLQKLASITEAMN; partner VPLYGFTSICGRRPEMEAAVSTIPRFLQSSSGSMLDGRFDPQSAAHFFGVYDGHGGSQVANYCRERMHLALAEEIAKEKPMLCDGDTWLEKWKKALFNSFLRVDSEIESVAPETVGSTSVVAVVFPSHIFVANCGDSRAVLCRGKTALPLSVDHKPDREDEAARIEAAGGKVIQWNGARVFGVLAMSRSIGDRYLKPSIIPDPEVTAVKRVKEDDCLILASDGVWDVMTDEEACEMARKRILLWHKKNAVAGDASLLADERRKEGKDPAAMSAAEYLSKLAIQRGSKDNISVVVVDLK
Change = Q10E; value = 99.9%
Change = G148T; value = 83.2%
Change = T86Q; value = 93.6%

Sample 3
Target: Ras GTPase-activating protein-binding protein 1, full length (G3BP1, Homo sapiens, UniProt Q13283)
Sequence of UniProt Q13283 (whole entry, looked up): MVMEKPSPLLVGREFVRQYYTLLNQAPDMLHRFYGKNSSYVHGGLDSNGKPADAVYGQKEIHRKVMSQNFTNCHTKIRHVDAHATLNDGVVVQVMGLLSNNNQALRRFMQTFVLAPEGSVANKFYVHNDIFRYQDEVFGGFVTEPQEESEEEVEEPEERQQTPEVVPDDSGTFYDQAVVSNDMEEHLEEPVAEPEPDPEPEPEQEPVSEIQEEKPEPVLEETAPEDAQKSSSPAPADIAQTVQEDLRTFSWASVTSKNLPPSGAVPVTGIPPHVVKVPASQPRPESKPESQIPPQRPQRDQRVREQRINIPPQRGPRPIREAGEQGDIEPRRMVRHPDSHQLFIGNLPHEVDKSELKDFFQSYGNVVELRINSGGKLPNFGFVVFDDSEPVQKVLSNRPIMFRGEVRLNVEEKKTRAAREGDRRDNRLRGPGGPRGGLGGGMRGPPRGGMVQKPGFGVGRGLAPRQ
Technique: RNA Bind-n-Seq
Molecule type: RNA
Sample: in vitro
Concentration: 200 nM
Setting: whole 134-nt RNA, ends assumed
With: 150 mM LiCl
Reference: input library
Reading: higher = stronger binding
Quantity: log2 enrichment
All molecules: 7-deaza-guanosine replaces G
All sequences stand within: GGGAGUUCUACAGUCCGACGAUC … UGGAAUUCUCGGGUGUCAAGG
Strand = UUCCUCAAGUCCUGUGCUACACAUCGUAUGUACCGAAUCGGUGGUGGUGGAAAGUAUUAUGUUACGCCGUUCGGAUCUGCACUUCCAGCA; value = 0.386
Strand = UCAAGUCCUGUGCUACACAUCGUAUGUACCGAAUCGGGAAAGGGAGGGAAAGGGAAAGUAUUAUGUUACGCCGUUCGGAUCUGCACUUCC; value = -0.674
Strand = CAAGUCCUGUGCUACACAUCGUAUGUACCGAAUCGGGAGGGAAAGGGAAAAAGGGAAAGUAUUAUGUUACGCCGUUCGGAUCUGCACUUC; value = 0.214
Strand = GUCCUGUGCUACACAUCGUAUGUACCGAAUCGGGGUUUUUGGUUUUUGGGGUUUUUGGGAAAGUAUUAUGUUACGCCGUUCGGAUCUGCA; value = -0.247
Strand = CUCAAGUCCUGUGCUACACAUCGUAUGUACCGAAUCGGUGGGGUGGGGUGGGGAAAGUAUUAUGUUACGCCGUUCGGAUCUGCACUUCCA; value = -0.0529
Strand = CUCAAGUCCUGUGCUACACAUCGUAUGUACCGAAUCGGGGCGGGGCGGGGCGGAAAGUAUUAUGUUACGCCGUUCGGAUCUGCACUUCCA; value = -0.424

Further values, each from its own experiment
Molecule = PhoQ, residues 284 288 289 292 302 303 TYGVAM; target = PhoP, residues 12 14 15 18 19 IFFTR (Escherichia coli, UniProt P23836); assay = Sort-seq, item: YFP reporter; test system = E. coli; conditions = PhoQ-PhoP variant library, with: 10 µM Mg2+; scale = reference: high Mg2+ state, higher = stronger signaling; quantity = fold induction; value = 2.31

For quick reference, copied from above (sample 3):
Strand = UUCCUCAAGUCCUGUGCUACACAUCGUAUGUACCGAAUCGGUGGUGGUGGAAAGUAUUAUGUUACGCCGUUCGGAUCUGCACUUCCAGCA; value = 0.386
Strand = CUCAAGUCCUGUGCUACACAUCGUAUGUACCGAAUCGGGGCGGGGCGGGGCGGAAAGUAUUAUGUUACGCCGUUCGGAUCUGCACUUCCA; value = -0.424
